Published values collected from several papers.
Every numbered part comes from another study and shows a few of its results, in no order. “And” joins repeats or separate records; there may be more than shown.
Chain of UniProt Q9NSY1 (whole entry, looked up): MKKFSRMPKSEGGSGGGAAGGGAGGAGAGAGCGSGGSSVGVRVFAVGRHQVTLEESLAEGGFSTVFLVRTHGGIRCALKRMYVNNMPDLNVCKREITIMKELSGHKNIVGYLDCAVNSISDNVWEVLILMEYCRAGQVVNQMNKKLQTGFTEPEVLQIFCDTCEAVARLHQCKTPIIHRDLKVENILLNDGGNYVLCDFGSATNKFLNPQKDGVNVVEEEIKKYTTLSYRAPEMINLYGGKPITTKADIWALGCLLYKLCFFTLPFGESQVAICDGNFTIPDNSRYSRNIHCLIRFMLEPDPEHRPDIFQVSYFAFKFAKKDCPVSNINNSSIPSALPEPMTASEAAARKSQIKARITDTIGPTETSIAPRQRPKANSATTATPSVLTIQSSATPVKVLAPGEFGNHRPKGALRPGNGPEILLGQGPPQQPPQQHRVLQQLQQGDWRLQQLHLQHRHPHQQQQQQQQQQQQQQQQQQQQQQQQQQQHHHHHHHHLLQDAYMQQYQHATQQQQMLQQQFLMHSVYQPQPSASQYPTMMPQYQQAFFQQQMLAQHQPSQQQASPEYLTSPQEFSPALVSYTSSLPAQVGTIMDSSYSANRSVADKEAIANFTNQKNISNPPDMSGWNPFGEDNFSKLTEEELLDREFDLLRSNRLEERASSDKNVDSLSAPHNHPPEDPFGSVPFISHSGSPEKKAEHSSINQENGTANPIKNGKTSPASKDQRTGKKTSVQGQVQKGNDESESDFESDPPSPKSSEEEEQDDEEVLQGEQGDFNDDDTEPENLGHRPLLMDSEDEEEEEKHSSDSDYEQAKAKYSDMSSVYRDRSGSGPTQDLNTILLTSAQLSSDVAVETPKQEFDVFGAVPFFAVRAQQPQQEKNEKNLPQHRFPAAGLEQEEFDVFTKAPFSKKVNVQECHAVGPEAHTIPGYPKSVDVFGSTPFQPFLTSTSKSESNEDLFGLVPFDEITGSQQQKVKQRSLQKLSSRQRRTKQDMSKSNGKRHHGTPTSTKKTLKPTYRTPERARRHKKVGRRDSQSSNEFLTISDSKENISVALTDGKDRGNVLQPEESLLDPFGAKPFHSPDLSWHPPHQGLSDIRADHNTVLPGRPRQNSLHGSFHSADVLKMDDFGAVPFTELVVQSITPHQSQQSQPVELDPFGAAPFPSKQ
Chain of UniProt P19784 (whole entry, looked up): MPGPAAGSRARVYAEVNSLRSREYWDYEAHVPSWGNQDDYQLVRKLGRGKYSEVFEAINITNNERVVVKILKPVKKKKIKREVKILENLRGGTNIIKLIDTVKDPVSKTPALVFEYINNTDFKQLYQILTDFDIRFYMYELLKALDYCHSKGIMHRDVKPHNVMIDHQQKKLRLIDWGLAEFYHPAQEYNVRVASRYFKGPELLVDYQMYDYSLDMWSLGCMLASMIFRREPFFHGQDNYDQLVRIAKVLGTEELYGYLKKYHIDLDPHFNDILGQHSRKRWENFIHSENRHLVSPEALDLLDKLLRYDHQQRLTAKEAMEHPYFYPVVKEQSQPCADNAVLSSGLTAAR
Chain of UniProt Q09013 (whole entry, looked up): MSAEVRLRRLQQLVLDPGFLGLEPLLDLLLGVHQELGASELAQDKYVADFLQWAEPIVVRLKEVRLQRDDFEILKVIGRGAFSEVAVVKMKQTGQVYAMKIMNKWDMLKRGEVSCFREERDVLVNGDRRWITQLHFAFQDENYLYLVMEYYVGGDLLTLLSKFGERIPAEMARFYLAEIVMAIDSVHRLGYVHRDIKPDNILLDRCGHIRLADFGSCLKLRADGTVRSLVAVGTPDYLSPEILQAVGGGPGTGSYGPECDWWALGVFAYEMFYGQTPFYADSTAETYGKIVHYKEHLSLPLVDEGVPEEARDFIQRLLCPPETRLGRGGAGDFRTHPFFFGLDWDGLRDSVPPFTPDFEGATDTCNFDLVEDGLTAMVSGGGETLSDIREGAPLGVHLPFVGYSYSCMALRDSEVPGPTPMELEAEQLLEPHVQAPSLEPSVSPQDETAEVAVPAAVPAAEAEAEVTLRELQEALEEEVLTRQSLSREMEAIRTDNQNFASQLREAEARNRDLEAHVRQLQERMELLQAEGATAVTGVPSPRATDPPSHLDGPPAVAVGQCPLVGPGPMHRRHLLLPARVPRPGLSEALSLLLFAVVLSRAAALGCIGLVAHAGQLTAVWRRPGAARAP
Chain of UniProt Q13976 (whole entry, looked up): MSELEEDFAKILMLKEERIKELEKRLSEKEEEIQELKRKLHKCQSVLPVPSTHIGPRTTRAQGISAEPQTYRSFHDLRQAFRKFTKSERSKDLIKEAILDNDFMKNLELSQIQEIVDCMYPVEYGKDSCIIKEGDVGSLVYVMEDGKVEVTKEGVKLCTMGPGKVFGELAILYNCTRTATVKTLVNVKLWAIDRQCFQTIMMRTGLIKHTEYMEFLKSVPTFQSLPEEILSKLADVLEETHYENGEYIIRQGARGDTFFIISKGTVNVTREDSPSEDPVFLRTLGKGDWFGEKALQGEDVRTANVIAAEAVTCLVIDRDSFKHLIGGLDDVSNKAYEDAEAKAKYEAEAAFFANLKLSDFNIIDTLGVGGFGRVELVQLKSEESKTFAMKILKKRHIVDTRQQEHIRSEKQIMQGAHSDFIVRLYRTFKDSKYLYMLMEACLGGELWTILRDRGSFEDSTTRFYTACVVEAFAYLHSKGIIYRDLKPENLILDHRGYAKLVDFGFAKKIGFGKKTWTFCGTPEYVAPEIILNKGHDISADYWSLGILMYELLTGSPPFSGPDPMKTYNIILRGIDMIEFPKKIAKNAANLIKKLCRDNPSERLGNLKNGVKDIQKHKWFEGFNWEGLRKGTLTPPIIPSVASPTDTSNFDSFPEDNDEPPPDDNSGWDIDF
Chain of UniProt O94804 (whole entry, looked up): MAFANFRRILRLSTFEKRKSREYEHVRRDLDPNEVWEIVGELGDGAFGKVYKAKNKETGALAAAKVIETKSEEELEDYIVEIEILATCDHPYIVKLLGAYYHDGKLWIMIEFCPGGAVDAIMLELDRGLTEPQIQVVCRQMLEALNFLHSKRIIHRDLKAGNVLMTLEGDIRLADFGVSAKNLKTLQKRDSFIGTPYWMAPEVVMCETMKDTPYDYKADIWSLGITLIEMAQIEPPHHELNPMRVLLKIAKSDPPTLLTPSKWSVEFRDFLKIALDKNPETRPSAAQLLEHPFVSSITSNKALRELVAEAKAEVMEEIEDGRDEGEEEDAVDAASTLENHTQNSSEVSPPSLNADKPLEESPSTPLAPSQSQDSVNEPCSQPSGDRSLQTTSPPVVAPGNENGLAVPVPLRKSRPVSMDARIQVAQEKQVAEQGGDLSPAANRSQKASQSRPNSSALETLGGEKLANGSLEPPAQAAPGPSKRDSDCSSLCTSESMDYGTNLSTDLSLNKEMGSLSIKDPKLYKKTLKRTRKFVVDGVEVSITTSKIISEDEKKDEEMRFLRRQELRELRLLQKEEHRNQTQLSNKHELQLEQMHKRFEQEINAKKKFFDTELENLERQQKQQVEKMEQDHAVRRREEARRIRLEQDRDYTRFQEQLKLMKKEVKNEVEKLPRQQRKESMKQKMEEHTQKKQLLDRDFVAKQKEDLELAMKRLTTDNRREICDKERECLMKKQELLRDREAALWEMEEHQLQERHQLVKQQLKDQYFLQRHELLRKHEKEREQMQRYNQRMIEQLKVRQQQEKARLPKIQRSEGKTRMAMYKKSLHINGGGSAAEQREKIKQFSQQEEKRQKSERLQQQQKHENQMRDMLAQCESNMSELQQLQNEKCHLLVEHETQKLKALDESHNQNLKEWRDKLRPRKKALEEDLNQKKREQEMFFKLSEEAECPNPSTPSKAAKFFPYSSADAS
Chain of UniProt O94806 (whole entry, looked up): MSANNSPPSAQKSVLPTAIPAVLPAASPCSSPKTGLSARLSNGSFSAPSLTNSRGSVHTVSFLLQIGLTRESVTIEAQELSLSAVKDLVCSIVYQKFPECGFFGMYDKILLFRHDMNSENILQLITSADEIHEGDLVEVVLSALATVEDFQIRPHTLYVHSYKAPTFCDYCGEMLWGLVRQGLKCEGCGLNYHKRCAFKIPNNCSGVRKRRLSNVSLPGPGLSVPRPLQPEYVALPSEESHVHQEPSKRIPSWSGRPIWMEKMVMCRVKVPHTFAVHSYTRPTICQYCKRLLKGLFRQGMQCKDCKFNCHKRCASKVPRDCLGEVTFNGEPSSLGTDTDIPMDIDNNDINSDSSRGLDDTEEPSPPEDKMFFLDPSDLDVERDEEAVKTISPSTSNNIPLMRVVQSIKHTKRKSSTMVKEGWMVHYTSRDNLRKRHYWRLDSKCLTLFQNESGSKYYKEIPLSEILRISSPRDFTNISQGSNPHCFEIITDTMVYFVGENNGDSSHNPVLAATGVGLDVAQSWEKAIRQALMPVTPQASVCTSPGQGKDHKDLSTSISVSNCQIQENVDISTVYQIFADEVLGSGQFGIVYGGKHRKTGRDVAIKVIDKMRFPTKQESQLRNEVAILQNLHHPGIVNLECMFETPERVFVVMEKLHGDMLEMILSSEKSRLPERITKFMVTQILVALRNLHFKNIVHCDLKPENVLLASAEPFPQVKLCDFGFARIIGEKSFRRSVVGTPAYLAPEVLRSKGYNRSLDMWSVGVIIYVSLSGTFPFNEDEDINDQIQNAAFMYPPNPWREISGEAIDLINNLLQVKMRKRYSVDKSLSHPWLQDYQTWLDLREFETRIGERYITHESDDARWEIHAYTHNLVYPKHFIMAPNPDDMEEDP

Study 1
Compound: CS(=O)(=O)CCNCc1ccc(-c2ccc3ncnc(Nc4ccc(OCc5cccc(F)c5)c(Cl)c4)c3c2)o1
Observed: enzyme activity
Mode: inhibitor
Tested at: 0.5 µM
Relative to: control
For STK39 (Homo sapiens, UniProt Q9UEW8): remaining activity read 100%.
cGMP-dependent protein kinase 1, isoform beta (PRKG1, Homo sapiens, UniProt Q13976) — remaining activity: 99.7%.
For IKBKB (Homo sapiens, UniProt O14920): remaining activity read 81%.
The remaining activity was 93.5% (Protein kinase C beta type, isoform beta-I (PRKCB, Homo sapiens, UniProt P05771)).
It gave 94.8% for remaining activity (STK10 (Homo sapiens, UniProt O94804)).
The remaining activity was 98.1% (MAPK9 (Homo sapiens, UniProt P45984)).

Study 2
Cell line: mouse MPNST tumor cells
Method: high-content nuclear imaging
Item: cell number
Tested at: 10 µM
Time: 12 h
Setting: mean of 2 replicates
Relative to: plate mean
Reading: higher = more cells
`CCCCC(O)c1ccccc1` (stereo not drawn) gave a nuclei count of -0.333 z-score.
The nuclei count of `CCN(CC)C(=S)S` is reported as -0.463 z-score.
`Oc1c(CN2CCCC2)cc(COCc2ccccc2)c2cccnc12` has a nuclei count of -3.15 z-score.
`Nc1nc2c(ncn2COC(CO)CO)c(=O)[nH]1` gave a nuclei count of -0.0275 z-score and 0.709 z-score.
The nuclei count of `COCCN(C(=O)c1cc(OC)c(OC)c(OC)c1)c1nc(-c2ccccc2)cs1` is reported as 1.22 z-score.
For `Cn1cc(C2=C(c3cn(CCCSC(=N)N)c4ccccc34)C(=O)NC2=O)c2ccccc21`, the nuclei count was -4.45 z-score.
`COC(=O)Nc1nc2cc(Sc3ccccc3)ccc2[nH]1` has a nuclei count of -5.43 z-score.
For `O=C(CCBr)N1CCN(C(=O)CCBr)CC1`, the nuclei count was -0.0875 z-score.
`O=C(O)C(Cc1c[nH]c2ccccc12)N1C(=O)c2ccccc2C1=O` (stereo not drawn) has a nuclei count of 0.174 z-score.

Study 3
Cell line: A-375
Tested at: 100 µM
Time: 18 h
The viability of `C[C@]12CC[C@H](O)CC1=CC[C@@H]1[C@@H]2CC[C@]2(C)C(c3cccnc3)=CC[C@@H]12` is reported as 88.9%.
`NC(=O)N1c2ccccc2CCc2ccccc21` gave a viability of 78.3%.
With `C[C@]12C=CC(=O)N[C@@H]1CC[C@@H]1[C@@H]2CC[C@]2(C)[C@@H](C(=O)Nc3cc(C(F)(F)F)ccc3C(F)(F)F)CC[C@@H]12` the viability was 73.9%.
With `Nc1nc(N)c2nc(-c3ccccc3)c(N)nc2n1` the viability was 42.9%.
For `COc1ccc(OC)c(C(O)CNC(=O)CN)c1` (stereo not drawn), the viability was 100%.
`CC(=O)Nc1ccccc1` has a viability of 94.4%.

Study 4
SMILES: CC(=O)N1CCC(c2ccc(C(=O)NC3=NCCN3)cc2C(F)(F)F)CC1
Observed: cell-free assay
Method: competition with immobilised ligand
Tested at: 1 µM
The remaining binding was 86% (MAP3K1 (Homo sapiens, UniProt Q13233)).
For DMPK (Homo sapiens, UniProt Q09013): remaining binding read 100%.
The remaining binding was 100% (Ribosomal protein S6 kinase alpha-2, N-terminal kinase domain (RPS6KA2, Homo sapiens, UniProt Q15349)).
For FLT3 (Homo sapiens, UniProt P36888, D835H): remaining binding read 93%.
Receptor-type tyrosine-protein kinase FLT3, autoinhibited (FLT3, Homo sapiens, UniProt P36888) — remaining binding: 100%.
For CSNK2A2 (Homo sapiens, UniProt P19784): remaining binding read 100%.
For HCK (Homo sapiens, UniProt P08631): remaining binding read 100%.
For SIK2 (Homo sapiens, UniProt Q9H0K1): remaining binding read 100%.
It gave 93% for remaining binding (EPHA8 (Homo sapiens, UniProt P29322)).
The remaining binding was 100% (BMP2K (Homo sapiens, UniProt Q9NSY1)).
For PRKD3 (Homo sapiens, UniProt O94806): remaining binding read 100%.
NEK3 (Homo sapiens, UniProt P51956) — remaining binding: 63%.
It gave 100% for remaining binding (EGFR (Homo sapiens, UniProt P00533, del747-750/T751S)).
It gave 88% for remaining binding (PLK1 (Homo sapiens, UniProt P53350)).
DYRK1B (Homo sapiens, UniProt Q9Y463) — remaining binding: 37%.

For quick reference, copied from above (study 2):
`Nc1nc2c(ncn2COC(CO)CO)c(=O)[nH]1` gave a nuclei count of -0.0275 z-score and 0.709 z-score.
The nuclei count of `COCCN(C(=O)c1cc(OC)c(OC)c(OC)c1)c1nc(-c2ccccc2)cs1` is reported as 1.22 z-score.
The nuclei count of `CCN(CC)C(=S)S` is reported as -0.463 z-score.
For `O=C(CCBr)N1CCN(C(=O)CCBr)CC1`, the nuclei count was -0.0875 z-score.
For `Cn1cc(C2=C(c3cn(CCCSC(=N)N)c4ccccc34)C(=O)NC2=O)c2ccccc21`, the nuclei count was -4.45 z-score.
